Measured values gathered from unrelated publications.
Lines come from different studies, so protocols differ. ± gives the spread as reported.
Target: Mu-type opioid receptor (Oprm1, Rattus norvegicus, UniProt P33535)
UniProt P33535, sequence (whole entry, looked up): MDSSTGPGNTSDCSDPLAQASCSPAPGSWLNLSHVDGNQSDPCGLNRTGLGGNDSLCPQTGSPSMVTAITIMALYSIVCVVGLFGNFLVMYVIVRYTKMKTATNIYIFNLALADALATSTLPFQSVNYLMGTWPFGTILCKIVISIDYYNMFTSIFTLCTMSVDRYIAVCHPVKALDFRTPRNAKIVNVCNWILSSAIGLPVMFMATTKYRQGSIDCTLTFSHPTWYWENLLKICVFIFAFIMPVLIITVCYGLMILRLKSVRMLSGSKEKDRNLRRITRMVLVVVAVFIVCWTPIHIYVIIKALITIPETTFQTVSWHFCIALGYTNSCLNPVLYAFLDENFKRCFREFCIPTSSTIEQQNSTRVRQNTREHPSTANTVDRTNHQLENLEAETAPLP

| SMILES | assay | test system | setting | how to read | endpoint | result |
| --- | --- | --- | --- | --- | --- | --- |
| Cc1cc(O)cc(C)c1CC(N)C(=O)NC1CCNc2ccc(Cc3ccc4ncccc4c3)cc21 (stereo not shown) | agonist | – | 10 µM | relative to: DAMGO | maximal stimulation | 34 ± 6% |
| CC(C)C[C@H](NC(=O)[C@@H]1CCCN1C(=O)[C@@H]1NC(=O)[C@H](Cc2ccccc2)NC(=O)CNC(=O)[C@H](NC(=O)[C@@H](N)Cc2ccc(O)cc2)C(C)(C)SSC1(C)C)C(=O)N[C@@H](Cc1c[nH]c2ccccc12)C(=O)NCc1cc(C(F)(F)F)cc(C(F)(F)F)c1 | GTPγS binding, agonist, radiometric | – | cell membranes | – | Emax | 28% |
| Cc1cc(O)cc(C)c1C[C@H](N)C(=O)N[C@@H]1CSCCSC(C)(C)[C@H](C(N)=O)NC(=O)C2(Cc3ccccc3C2)NC1=O | cAMP production, inhibitor | C6 cells expressing mu opioid receptor | with: forskolin | – | maximal inhibition | 76 ± 0.9% |
| CCCCc1cc(Cc2ccccc2)cc2c1NCCC2NC(=O)C(N)Cc1c(C)cc(O)cc1C (stereo not shown) | agonist | C6 cells expressing MOR | – | relative to: DAMGO at 10 µM | efficacy | 85% |
| Cc1cc(O)cc(C)c1CC(N)C(=O)NC1CCNc2ccc(CN3CCCCC3)cc21 (stereo not shown) | agonist | – | 10 µM | relative to: DAMGO | maximal stimulation | 73 ± 8% |
| NCc1ccc2[nH]c3c(c2c1)CC1(O)C2Cc4ccc(O)c5c4C1(CCN2CC1CC1)C3O5 (stereo not shown) | antagonist | C6 cells expressing µ receptor | with: DAMGO | – | Ke | 11.8 ± 2.7 nM |
| NC(=O)[C@H](CO)NC(=O)[C@@H]1CCCN1C(=O)[C@H](Cc1ccc(O)cc1)NC(=O)CNC(=O)[C@H](Cc1ccccc1)NC(=O)[C@@H](CCCN=C=S)NC(=O)[C@@H](N)Cc1ccc(O)cc1 | [3H]DAMGO binding, wash-resistant binding | – | about IC50 | – | inhibition | 40 ± 8% |
| Cc1cc(O)cc(C)c1CC(N)C(=O)NC1CCNc2ccc(CN3CCC4CCCCC4C3)cc21 (stereo not shown) | agonist | – | 10 µM | relative to: DAMGO | maximal stimulation | 56 ± 2% |
| Cc1cc(O)cc(C)c1CC(N)C(=O)NC1CCNc2c(C(=O)Nc3ccccc3)cc(Cc3ccccc3)cc21 (stereo not shown) | agonist | C6 cells expressing MOR | – | relative to: DAMGO at 10 µM | efficacy | 49% |
| Cc1cc(O)cc(C)c1CC(N)C(=O)NC1CCNc2ccc(CN3CCOCC3)cc21 (stereo not shown) | agonist | – | 10 µM | relative to: DAMGO | maximal stimulation | 82 ± 2% |
| NC(=O)[C@H](CO)NC(=O)[C@@H]1CCCN1C(=O)[C@H](Cc1ccc(O)cc1)NC(=O)CNC(=O)[C@H](Cc1ccccc1)NC(=O)[C@@H](CCCCNC(=O)CBr)NC(=O)[C@@H](N)Cc1ccc(O)cc1 | [3H]DAMGO binding, wash-resistant binding | – | about IC50 | – | inhibition | 32 ± 1% |
| Cc1cc(O)cc(C)c1CC(N)C(=O)NC1CCNc2c1cc(Cc1ccccc1)cc2C(F)(F)F (stereo not shown) | agonist | C6 cells expressing MOR | – | relative to: DAMGO at 10 µM | efficacy | 70% |
| CC(=O)N1CCC(NC(=O)C(N)Cc2c(C)cc(O)cc2C)c2cc(CN3CCC4CCCCC4C3)ccc21 (stereo not shown) | agonist | – | 10 µM | relative to: DAMGO | maximal stimulation | 72 ± 3% |
| Cc1cc(O)cc(C)c1C[C@H](N)C(=O)N[C@@H]1CSCCSC(C)(C)[C@H](C(=O)O)NC(=O)C2(Cc3ccccc3C2)NC1=O | cAMP production, inhibitor | C6 cells expressing mu opioid receptor | with: forskolin | – | maximal inhibition | 77 ± 2.4% |
| Cc1cc(O)cc(C)c1CC(N)C(=O)NC1CCNc2c(F)cc(Cc3ccccc3)cc21 (stereo not shown) | agonist | C6 cells expressing MOR | – | relative to: DAMGO at 10 µM | efficacy | 95% |
| Cc1cc(O)cc(C)c1CC(N)C(=O)NC1CCNc2ccc(CN3CCCCCC3)cc21 (stereo not shown) | agonist | – | 10 µM | relative to: DAMGO | maximal stimulation | 52 ± 2% |
| Cc1cc(O)cc(C)c1CC(N)C(=O)NC1CCNc2c(CN3CCCCC3)cc(Cc3ccccc3)cc21 (stereo not shown) | agonist | C6 cells expressing MOR | – | relative to: DAMGO at 10 µM | efficacy | 93% |
| CC(C)C[C@H](NC(=O)[C@H](Cc1ccc2ccccc2c1)NC(=O)CNC(=O)[C@H](NC(=O)[C@@H](N)Cc1ccc(O)cc1)[C@H](C)O)C(=O)N[C@@H](CO[C@@H]1O[C@H](CO)[C@@H](O)[C@H](O)[C@H]1O)C(N)=O | GTPγS binding, agonist, radiometric | – | cell membranes | – | Emax | 93% |
| CCNC(=O)c1cc(Cc2ccccc2)cc2c1NCCC2NC(=O)C(N)Cc1c(C)cc(O)cc1C (stereo not shown) | agonist | C6 cells expressing MOR | – | relative to: DAMGO at 10 µM | efficacy | 56% |
| Cc1cc(O)cc(C)c1C[C@H](N)C(=O)N1Cc2ccccc2C[C@H]1CN[C@@H](Cc1ccccc1)C(=O)N[C@@H](Cc1ccccc1)C(N)=O | cAMP production, inhibitor | C6 cells expressing mu opioid receptor | with: forskolin | – | maximal inhibition | 64 ± 10% |
| Cc1cc(O)cc(C)c1CC(N)C(=O)NC1CCNc2c(Cc3ccccc3)cc(Cc3ccccc3)cc21 (stereo not shown) | agonist | C6 cells expressing MOR | – | relative to: DAMGO at 10 µM | efficacy | 96% |
| CC(C)C[C@H](NC(=O)[C@H](Cc1ccc2ccccc2c1)NC(=O)CNC(=O)[C@H](NC(=O)[C@@H](N)Cc1ccc(O)cc1)[C@H](C)O)C(=O)N[C@@H](CO)C(N)=O | GTPγS binding, agonist, radiometric | – | cell membranes | – | Emax | 101% |
